Measurements of several laboratories.
Each numbered part is a random draw from the data of one study; scales do not carry over between parts.

Series 1 — method: RNA Bind-n-Seq; molecule type: RNA; medium: in vitro; concentration: 200 nM; setting: whole 134-nt RNA, ends assumed; added: 150 mM LiCl; baseline: input library; direction: higher = stronger binding; quantity: log2 enrichment; all molecules: 7-deaza-guanosine replaces G
Target: Fragile X messenger ribonucleoprotein 1, C-terminal low-complexity region (Fmr1, Mus musculus, UniProt P35922)
Shared flanks, not repeated: GGGAGUUCUACAGUCCGACGAUC … UGGAAUUCUCGGGUGUCAAGG
Oligonucleotide = GUCCUGUGCUACACAUCGUAUGUACCGAAUCGGGUUUUUGGGUUUUUGGGUUUUUGGGGAAAGUAUUAUGUUACGCCGUUCGGAUCUGCA; result = -1.11
Oligonucleotide = CACAGACGACACGCACCCACACAGACACAGAGGGAAGGGGUUGGGAUGGGGACAGGGUGCACAGCAGGGCGGGGUAGGACCCCAGCCCCU; result = 0.492
Oligonucleotide = CAAGUCCUGUGCUACACAUCGUAUGUACCGAAUCGGGGCCCGGGGCCCGGCCCGGAAAGUAUUAUGUUACGCCGUUCGGAUCUGCACUUC; result = -1.66
Oligonucleotide = CACAGACAACACGCACCCACACAGACACAGAGGGAAGGGGUUGGGAUGGGGACAGGGUGCACGGCAGGGCGGGGUAGGACCCCAGCCCCU; result = -0.423
Oligonucleotide = ACCAUGCAGGAGGGCAUCUUUGGGAAGUGGGGCAAGGGGGGGAUAGGGAGGGGGGUAACACUUUGGGAACAGGUGGUCCCAGGUCGUUUC; result = 1.62
Oligonucleotide = CUGUGCUACACAUCGUAUGUACCGAAUCGGGGUUUUUUGGGUUUUUUGGGGUUUUUUGGGGAAAGUAUUAUGUUACGCCGUUCGGAUCUG; result = 1.27
Oligonucleotide = CAAGUCCUGUGCUACACAUCGUAUGUACCGAAUCGGGCCCGGGGCCCGGCCCGGGAAAGUAUUAUGUUACGCCGUUCGGAUCUGCACUUC; result = -2.63
Oligonucleotide = ACCAUGCAGGUGGGCAUCUUUGGGAAGUGGGGCAAGGGGGGGAUAGGGAGGGGGGUAACACUUUGGGAACAGCUGGUCCCAGGUCGUUUC; result = 1.52
Oligonucleotide = CACAGACAACACGCACCCACACAGACACAGAGGGAAGGGGUUGGGAUGGGGACAGGAUGCACAGCAGGGCGGGGUAGGACCCCAGCCCCU; result = 0.311
Oligonucleotide = AGUCCUGUGCUACACAUCGUAUGUACCGAAUCGGGAAAAAAAGGGAAAGGGUUUGGGAAAGUAUUAUGUUACGCCGUUCGGAUCUGCACU; result = -3.08
Oligonucleotide = UGGGAGGUGGAUUUUGUUUAUUUUUUUAGCUCAUUUCCAGGGGUGGGAAUUUUUUUAUAAUAUGUGUCAUGAAUAAAGUUGUUUUUGAAA; result = 0.0424

Series 2 — cell line: yeast with cyclin D2-Cln2 chimera; read-out: cell growth; action: binder; method: competitive growth deep sequencing; molecule type: peptide; concentration: concentration not given; setting: peptide tiling library; direction: direction not given; quantity: growth enrichment score
Sequence = VRDLSYRLVFLACCVA; result = -1.34
Sequence = NFETPEAETPIRSPFK; result = -1.26
Sequence = RNRGPKLNAMLRLGVL; result = -1.43
Sequence = TSPGPVLLHPSPSTTQ; result = 0.563
Sequence = VLVRTSACRSLFGPVD; result = 0.357
Sequence = QNPCGSKACRRLFGPV; result = 0.238
Sequence = KDDDKAWEYEERDRRS; result = 0.488
Sequence = AEHPKPSACRNLFGPV; result = 0.18
Sequence = SGYLTDENEVGFRG; result = 0.127
Sequence = PQWPCGKHKRVLIFAS; result = -0.6
Sequence = TRRRLFVENDSP; result = -0.657
Sequence = DGCSPIKNWSPMRL; result = 0.659
Sequence = VLPGGVPSPGASLTSM; result = 0.778

Series 3 — method: RNA Bind-n-Seq; molecule type: RNA; medium: in vitro; concentration: 365 nM; baseline: no-protein control; direction: higher = stronger binding; quantity: RBNS enrichment (R)
Target: RNA binding protein fox-1 homolog 2, RRM domain, GST-SBP tag (RBFOX2, Homo sapiens, UniProt O43251-10, residues 100-194)
Setting: natural RNA segment, single round, ends assumed
Shared flanks, not repeated: GGGAGUUCUACAGUCCGACGAUC … UGGAAUUCUCGGGUGCCAA
Target sequence (chain): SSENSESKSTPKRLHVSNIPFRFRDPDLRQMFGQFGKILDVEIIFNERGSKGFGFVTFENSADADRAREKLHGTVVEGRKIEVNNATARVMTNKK
Oligonucleotide = GUGUGAAGUGGCCUGGGGUUGUUCCAUAAUGAAGACUCAAGAAGACUGUUUCCCCACCACAGAUGUCCUGAGAUUCAGUUAAAACGAAACAUGCUGCAUCUCCAGAGAUG; result = 0.407
Oligonucleotide = UCAGGCUCUGUCCUAGAGUGGGCAGUCCUGAUGCAGGGCUCAGCAGGAGCCUAGUGCAGGGUGAACACGAAGCUGCUUGAGCAGCAGGAGGUGGCUGGACCAUCGUACCC; result = 0.22
Oligonucleotide = GCUCAGAUGCUGCAGUGCAGGGGCUUCAGCAUUCUUGAGUUCCUCCGUGUUAAUAAAAACAUCCUGUACAGUUGGGGACUAUGUUGUUAAUUUUGUCCCCUUAACAGCAG; result = 0.705
Oligonucleotide = GCUGGGGGUGAGGAGACAACAAACCUCGGGAACUGGAGCCAGAGCUGCGGCCUGACUGACGCCUUUUGAUGCUCACGGGAAAUUUCUGCCCAGGAUCUCAGCCCCAGGCU; result = 0.322
Oligonucleotide = UUCAUCUUUGUAUUCUGAAGAUAAGGUUUGAAUUAAAUUGAUACACACAGAGGGGAACCGAUUUUUUUUAUCCAAUGUGAAUUAUAAAUGAGAUAAUCCACAGUUAUUCA; result = 1.29
Oligonucleotide = CUGAAGAGGGGCCGGCCUGAAGCCCAUGACCCCCCAGCACCACACUCCGGGAGCCCAGCCCCCAUCGGGGGCUUCCUGUACCUCCUUUUGCCUGGCUCUGCUCUUUAGAC; result = 0.593
Oligonucleotide = UGUGAUUUCAGCAGUCAUGGUAUUCCAAGUGUGUGUGUGGAGGUAGAUAAGUGGGACGGUAAAGACAAAGGCGUGGAAGAGAAAGUCAGCGCUUCCUUCCUGGGAAGCCU; result = 0.451
Oligonucleotide = UCCUCUGAUGUCAGCGUAUUAGUCUCAGUUUACAAAGUACUUAAUAAAACUAACUACUGUAAAACCAUGGAUCAUUUCUUUAGAGUGGUCUUUAGAGCAACAGGCAUUUG; result = 0.336
Oligonucleotide = AUGUAAAGUUUAUUUUUAAGAAUCCAAUAGUGAUUUGUAUACUUGUUUUUUUUUCAUUUUAAACCAAAUGCAUGUAUAAUCAUGUUGGAAUAUGUUAAGAUCUAUGGAUA; result = 1.59
Oligonucleotide = ACAUAAUUGACUUUUUCCAACAAAAUGUAUAUUAUUACAUGUUAGAUAAUAAGAACAAUUGUCCCGUGAAUGAUUCUAUGAAGCUAUGCAUCUUAGACCUCUUGAGCUGU; result = 0.609
Oligonucleotide = GAGUUGGCAAGCUUAACAAAACCCAUUUUUUAUAAAUGUCCAUCCUCCUGCAUUUGUUGAUACCACUAACAAAAUGCUUUGUAACAGACUUGCGGUUAAUUAUGCAAAUG; result = 0.406
Oligonucleotide = CCUUUUGUACUCAGUAUCUGUCUUCCAGAAACCUCACCUGCCUUCUCUCUCAUGUGGUCUCUUAAUCCAGUAAUUGUAUUACUGCCAUUAAAGGAUGCAGUUAUUUUAAA; result = 0.294

Single results of other studies
Substance = PhoQ, residues 284 288 289 292 302 303 GANMMA; target = PhoP, residues 12 14 15 18 19 SMASL (Escherichia coli, UniProt P23836); test = Sort-seq, measured: YFP reporter; test system = E. coli; conditions = PhoQ-PhoP variant library, added: 10 µM Mg2+; scale = baseline: high Mg2+ state, higher = stronger signaling; quantity = fold induction; result = 2.67

Some of these lines once more (series 1):
Oligonucleotide = CUGUGCUACACAUCGUAUGUACCGAAUCGGGGUUUUUUGGGUUUUUUGGGGUUUUUUGGGGAAAGUAUUAUGUUACGCCGUUCGGAUCUG; result = 1.27
Oligonucleotide = CAAGUCCUGUGCUACACAUCGUAUGUACCGAAUCGGGCCCGGGGCCCGGCCCGGGAAAGUAUUAUGUUACGCCGUUCGGAUCUGCACUUC; result = -2.63
Oligonucleotide = ACCAUGCAGGUGGGCAUCUUUGGGAAGUGGGGCAAGGGGGGGAUAGGGAGGGGGGUAACACUUUGGGAACAGCUGGUCCCAGGUCGUUUC; result = 1.52
Oligonucleotide = CACAGACAACACGCACCCACACAGACACAGAGGGAAGGGGUUGGGAUGGGGACAGGAUGCACAGCAGGGCGGGGUAGGACCCCAGCCCCU; result = 0.311
Oligonucleotide = AGUCCUGUGCUACACAUCGUAUGUACCGAAUCGGGAAAAAAAGGGAAAGGGUUUGGGAAAGUAUUAUGUUACGCCGUUCGGAUCUGCACU; result = -3.08
